Measurements from different studies.
Compare with care: the assays were run in different laboratories. “And” joins repeats or separate records; there may be more than shown. Numbers after ± are the reported error.
POLB I260M: DNA polymerase beta (POLB, Homo sapiens, UniProt P06746, I260M)
POLB: DNA polymerase beta (POLB, Homo sapiens, UniProt P06746)

C[n+]1cn(C2OC(COP(=O)(O)OP(=O)([O-])C(Cl)(Cl)P(=O)(O)O)C(O)C2O)c2nc(N)nc(O)c21 (stereo not drawn)  Kd (Eukaryotic translation initiation factor 4E, residues 28-217 (Eif4e, Mus musculus, UniProt P63073); binding, fluorescence quenching titration; pH 7.2, 20 °C): 0.00532 ± 0.000209 µM
O=C(O)CN(CCNc1ccc(N=Nc2cc(C(F)(F)F)cc(C(F)(F)F)c2)c2ccccc12)CC(=O)O  Kd (MAPT (Homo sapiens, UniProt P10636); binding, MST): 1.54 µM
N#Cc1ccc(-c2cc(=O)c3ccc4[nH]c(C(F)(F)F)nc4c3o2)cc1  Kd (NTRK2 (Homo sapiens, UniProt Q16620); binding, SPR): 0.0802 µM
NS(=O)(=O)c1c(F)c(F)c(S(=O)(=O)CCO)c(NCc2ccccc2)c1F  Kd (CA2 (Homo sapiens, UniProt P00918, A65S/F130A/I91T/L203N/N67K/V134S); pH 7): 0.04 µM
OC[C@H]1Oc2c(I)c(I)cc3c2[C@@H](OC3)[C@H]1O  Kd (Galectin-8 (LGALS8, Homo sapiens, UniProt O00214); cell-free assay, FP): 2100 µM
CNCCNC(=O)CN1C(=O)Cc2c([nH]c3ccc(Br)cc23)-c2ccc(Cl)cc21  Kd (Trypanothione synthetase (Leishmania infantum, UniProt A4I2Z3); isothermal titration calorimetry; together with: ADP 2 mM and glutathione 2 mM): 0.417 µM
O=C1c2sc(-c3ccc(N4CCC(F)C4)nc3F)nc2CCN1c1cccnc1 (stereo not drawn)  Kd (TAR DNA-binding protein 43, aggregated (TARDBP, Homo sapiens, UniProt Q13148); radioligand binding; FTLD-TDP type B brain homogenate): 0.038 ± 0.025 µM
CC[C@H](C)[C@H](NC(=O)[C@H](CC(=O)O)NC(=O)[C@H](CO)NC(C)=O)C(=O)N[C@@H](CSCc1ccccc1)C(=O)N[C@@H](CC(=O)O)C(=O)N[C@@H](Cc1ccccc1)C(=O)N[C@H](C(=O)N[C@@H](CC(C)C)C(=O)N[C@@H](CCCCN)C(=O)N[C@@H](CC(N)=O)C(=O)N[C@@H](Cc1ccc(O)cc1)C(=O)N1CCC[C@H]1C(N)=O)[C@@H](C)CC  Kd (CREB-binding protein, KIX domain (CREBBP, Homo sapiens, UniProt Q92793); binding, fluorescence polarisation): 7.3 ± 1.5 µM
CC(=O)N[C@@H]1[C@@H](O[C@@H]2O[C@H](C(=O)O)[C@@H](O[C@@H]3O[C@H](COS(=O)(=O)O)[C@@H](OS(=O)(=O)O)[C@H](O[C@@H]4O[C@H](C(=O)O)[C@@H](OS(=O)(=O)O)[C@H](OS(=O)(=O)O)[C@H]4OS(=O)(=O)O)[C@H]3NC(C)=O)[C@H](OS(=O)(=O)O)[C@H]2OS(=O)(=O)O)[C@H](OS(=O)(=O)O)[C@@H](COS(=O)(=O)O)O[C@H]1n1ccnn1  Kd (Interleukin-8 (CXCL8, Homo sapiens, UniProt P10145); ligand displacement, FP): 10.6 µM
CC[C@H](C)[C@@H]1NC(=O)[C@H](C)NC(=O)[C@H](C)NC(=O)[C@H]([C@@H](C)O)NC(=O)[C@H](Cc2ccccc2)NC(=O)[C@@H]2CSSC[C@@H]3NC(=O)[C@H](C(C)C)NC(=O)[C@H](CCCCN)NC(=O)[C@H](CO)NC(=O)[C@H](CCCCN)NC(=O)[C@@H]4CSSC[C@H](NC(=O)[C@H](CO)NC(=O)[C@H](CCC(=O)O)NC(=O)[C@H](C)NC(=O)[C@H](CSSC[C@H](NC(=O)CNC1=O)C(=O)N[C@@H](CO)C(=O)N4)NC(=O)[C@@H]1CCCN1C(=O)[C@H](Cc1ccccc1)NC(=O)CNC(=O)[C@H](CC(N)=O)NC(=O)[C@H](CCCCN)NC(=O)[C@H](Cc1ccc(O)cc1)NC3=O)C(=O)N[C@@H](C(C)C)C(=O)N[C@@H](Cc1ccc(O)cc1)C(=O)N[C@@H](CC(C)C)C(=O)N1CCC[C@H]1C(=O)N2  Kd (POPC/POPE lipid membrane; membrane binding, surface plasmon resonance; POPC/POPE 80:20 vesicles; pH 7.4): 4.77 ± 0.16 µM
CC[C@H](C)[C@H](NC(=O)[C@H](CC(C)C)NC(=O)[C@H](CCCNC(=N)N)NC(=O)c1ccc(CN2CCN(C)CC2)cc1)C(=O)N[C@@H](Cc1ccccc1)C(N)=O  Kd (Cyclin-A2 (CCNA2, Homo sapiens, UniProt P20248); binding, tryptophan fluorescence titration; co-expressed with DnaK-DnaJ-GrpE): > 6.5 µM and 6.59 µM
Nc1nc2c(ncn2C2CC(O)C(COP(=O)(O)OP(=O)(O)C(F)P(=O)(O)O)O2)c(=O)[nH]1 (mixture of isomers)  Kd (POLB I260M; nucleotide binding, substrate, single turnover kinetics; 37 °C, dG misincorporation opposite A): 1100 ± 328 µM
Cc1ccc(Oc2nc3cc(-c4ccc5c(ccn5C)c4)c(Cl)cc3[nH]2)cc1C(=O)O  Kd (PRKAA2/PRKAB1, phosphorylated; with gamma1 (Homo sapiens, UniProt P54646+Q9Y478, R83A); biolayer interferometry; AMPK complex α2β1(R83A)γ1): 1.57 µM
C[C@]12CCC(=O)C=C1CCC1C2C(=O)C[C@@]2(C)C1CC[C@]2(O)C(=O)CO (stereo partly drawn)  Kd (mouse anti-cortisol Fab 17; native MS titration; 200 mM ammonium acetate; 1.5% DMSO, 0.5% methanol, together with: Fab 100 nM): 0.064 ± 0.004 µM
CNc1ccccc1C(=O)O[C@H]1C[C@H](n2cnc3c(N)ncnc32)O[C@@H]1COP(=O)(O)OP(=O)(O)O  Kd (Unconventional myosin-Va (Gallus gallus, UniProt Q02440, D297C/G292C/I296C/S293C/V295G); stopped-flow FRET; 25 °C, together with: EDTA 4 mM): 7.9 ± 1.87 µM
CC(=O)c1cc(O)c(=O)c(O)cc1C  Kd (Mg2+; binding, absorption spectroscopy; high-affinity site): 200 µM
Cc1cn(C2CC(O)C(COP(=O)(O)OP(=O)(O)C(Br)P(=O)(O)O)O2)c(=O)[nH]c1=O (mixture of isomers)  Kd (POLB; dNTP binding, substrate, single-turnover kinetics; single-nucleotide gapped DNA; 37 °C, wild type, correct incorporation, together with: dTTP opposite template A): 9.8 ± 2.1 µM
COC1CCC(N(C(=O)C2CCC(C)CC2)c2cc(C3=CCCCC3)sc2C(=O)O)CC1 (stereo not drawn)  Kd (Probable UDP-N-acetylglucosamine--peptide N-acetylglucosaminyltransferase SPINDLY (SPY, Arabidopsis thaliana, UniProt Q96301); binding, biolayer interferometry): 37 µM
Nc1nc2c(ncn2[C@H]2C[C@H](O)[C@@H](COP(=O)(O)OP(=O)(O)[C@@H](Cl)P(=O)(O)O)O2)c(=O)[nH]1  Kd (POLB; substrate, quench-flow kinetics; pH 8.0, 37 °C, misincorporation opposite T in gapped DNA): 540 ± 30 µM
Nc1nc2c(ncn2[C@H]2C[C@H](O)[C@@H](COP(=O)(O)OP(=O)(O)C(Br)(Br)P(=O)(O)O)O2)c(=O)[nH]1  Kd (POLB I260M; nucleotide binding, substrate, single turnover kinetics; 37 °C, dG misincorporation opposite A): 177 ± 87 µM
CC(C)C[C@@H]1NC(=O)CNC(=O)[C@H](CC(N)=O)NC(=O)[C@H](CCCNC(=N)N)NC(=O)[C@H]([C@@H](C)O)NC(=O)[C@@H]2CSSC[C@@H]3NC(=O)[C@H]([C@@H](C)O)NC(=O)CNC(=O)CNC(=O)[C@H](C(C)C)NC(=O)[C@@H]4CSSC[C@H](NC(=O)[C@H]([C@@H](C)O)NC(=O)[C@H](CSSC[C@H](NC(=O)[C@H](C(C)C)NC(=O)[C@@H]5CCCN5C1=O)C(=O)NCC(=O)N[C@@H](CCC(=O)O)C(=O)N[C@@H]([C@@H](C)O)C(=O)N4)NC(=O)CNC(=O)[C@@H]1CCCN1C(=O)[C@H]([C@@H](C)O)NC(=O)[C@H](CC(N)=O)NC3=O)C(=O)N[C@@H](CO)C(=O)N[C@@H](Cc1c[nH]c3ccccc13)C(=O)N1CCC[C@H]1C(=O)N[C@@H](C(C)C)C(=O)N2  Kd (POPC/POPE lipid membrane; membrane binding, surface plasmon resonance; POPC/POPE 80:20 vesicles; pH 7.4): 18.2 ± 0.53 µM

For quick reference, copied from above:
COC1CCC(N(C(=O)C2CCC(C)CC2)c2cc(C3=CCCCC3)sc2C(=O)O)CC1 (stereo not drawn)  Kd (Probable UDP-N-acetylglucosamine--peptide N-acetylglucosaminyltransferase SPINDLY (SPY, Arabidopsis thaliana, UniProt Q96301); binding, biolayer interferometry): 37 µM
Nc1nc2c(ncn2[C@H]2C[C@H](O)[C@@H](COP(=O)(O)OP(=O)(O)[C@@H](Cl)P(=O)(O)O)O2)c(=O)[nH]1  Kd (POLB; substrate, quench-flow kinetics; pH 8.0, 37 °C, misincorporation opposite T in gapped DNA): 540 ± 30 µM
Nc1nc2c(ncn2[C@H]2C[C@H](O)[C@@H](COP(=O)(O)OP(=O)(O)C(Br)(Br)P(=O)(O)O)O2)c(=O)[nH]1  Kd (POLB I260M; nucleotide binding, substrate, single turnover kinetics; 37 °C, dG misincorporation opposite A): 177 ± 87 µM
